Measurements from different studies.
Each line is one published result; not all experiments were run side by side. ± gives the spread as reported.
Gria1: Glutamate receptor 1 (Gria1, Rattus norvegicus, UniProt P19490)
UniProt P19490, sequence (whole entry, looked up): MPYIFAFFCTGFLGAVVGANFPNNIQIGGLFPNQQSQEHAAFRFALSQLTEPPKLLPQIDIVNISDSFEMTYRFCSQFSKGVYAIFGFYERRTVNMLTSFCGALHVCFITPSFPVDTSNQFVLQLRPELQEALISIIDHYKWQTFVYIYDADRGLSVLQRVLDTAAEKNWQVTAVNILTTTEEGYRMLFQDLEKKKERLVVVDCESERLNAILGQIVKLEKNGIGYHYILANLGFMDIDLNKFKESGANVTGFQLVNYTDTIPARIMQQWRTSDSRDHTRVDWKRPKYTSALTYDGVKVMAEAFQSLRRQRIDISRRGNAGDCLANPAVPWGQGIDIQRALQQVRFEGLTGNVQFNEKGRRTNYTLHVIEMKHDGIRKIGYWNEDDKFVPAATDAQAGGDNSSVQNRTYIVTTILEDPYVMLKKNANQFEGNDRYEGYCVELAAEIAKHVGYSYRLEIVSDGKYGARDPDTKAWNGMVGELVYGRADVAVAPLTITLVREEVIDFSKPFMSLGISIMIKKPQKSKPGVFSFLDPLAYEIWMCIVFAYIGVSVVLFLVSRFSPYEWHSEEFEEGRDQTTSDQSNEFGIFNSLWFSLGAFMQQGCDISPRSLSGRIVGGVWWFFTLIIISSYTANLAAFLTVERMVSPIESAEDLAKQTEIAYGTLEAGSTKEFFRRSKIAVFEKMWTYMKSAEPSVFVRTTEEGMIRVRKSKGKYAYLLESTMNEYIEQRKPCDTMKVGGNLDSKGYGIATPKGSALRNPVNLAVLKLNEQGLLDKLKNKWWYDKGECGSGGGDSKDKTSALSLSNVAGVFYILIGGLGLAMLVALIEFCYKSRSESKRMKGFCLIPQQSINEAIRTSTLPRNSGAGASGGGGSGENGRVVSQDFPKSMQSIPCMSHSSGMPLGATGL
MAOB: Amine oxidase [flavin-containing] B (MAOB, Homo sapiens, UniProt P27338)
UniProt P27338, sequence (whole entry, looked up): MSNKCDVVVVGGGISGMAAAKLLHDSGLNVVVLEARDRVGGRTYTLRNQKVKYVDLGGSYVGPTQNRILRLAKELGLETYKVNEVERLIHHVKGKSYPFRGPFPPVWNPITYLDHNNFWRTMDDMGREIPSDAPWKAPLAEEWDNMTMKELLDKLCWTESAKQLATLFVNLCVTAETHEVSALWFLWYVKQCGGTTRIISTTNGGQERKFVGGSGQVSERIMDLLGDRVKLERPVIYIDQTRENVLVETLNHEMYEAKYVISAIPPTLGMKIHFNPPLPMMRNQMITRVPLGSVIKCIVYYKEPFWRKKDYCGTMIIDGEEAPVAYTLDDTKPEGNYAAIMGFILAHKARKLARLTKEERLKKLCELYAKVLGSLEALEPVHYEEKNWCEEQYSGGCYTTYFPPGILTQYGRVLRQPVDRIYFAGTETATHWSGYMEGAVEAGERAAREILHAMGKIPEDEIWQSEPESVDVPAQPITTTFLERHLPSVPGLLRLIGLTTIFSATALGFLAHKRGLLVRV
glpG: Rhomboid protease GlpG (glpG, Escherichia coli, UniProt P09391)
ppa: Inorganic pyrophosphatase (ppa, Escherichia coli, UniProt P0A7A9)
UniProt P0A7A9, sequence (whole entry, looked up): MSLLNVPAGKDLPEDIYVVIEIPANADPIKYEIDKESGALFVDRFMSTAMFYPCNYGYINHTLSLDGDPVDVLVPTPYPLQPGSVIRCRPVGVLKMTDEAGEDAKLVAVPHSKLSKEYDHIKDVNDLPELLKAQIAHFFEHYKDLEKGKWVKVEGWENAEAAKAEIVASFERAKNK
NTSR1: Neurotensin receptor type 1 (NTSR1, Homo sapiens, UniProt P30989)
UniProt P30989, sequence (whole entry, looked up): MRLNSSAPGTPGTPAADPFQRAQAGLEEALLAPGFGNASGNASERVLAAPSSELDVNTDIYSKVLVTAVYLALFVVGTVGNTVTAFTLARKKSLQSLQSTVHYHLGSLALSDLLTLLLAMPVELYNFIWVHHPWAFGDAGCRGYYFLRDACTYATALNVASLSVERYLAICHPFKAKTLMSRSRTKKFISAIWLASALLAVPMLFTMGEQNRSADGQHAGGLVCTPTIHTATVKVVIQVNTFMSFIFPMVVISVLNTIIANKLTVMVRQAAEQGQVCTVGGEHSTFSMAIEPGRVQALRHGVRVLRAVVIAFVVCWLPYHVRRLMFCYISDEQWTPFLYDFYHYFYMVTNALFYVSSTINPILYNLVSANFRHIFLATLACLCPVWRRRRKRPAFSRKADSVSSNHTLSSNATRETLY
SLC7A5: Large neutral amino acids transporter small subunit 1 (SLC7A5, Homo sapiens, UniProt Q01650)
UniProt Q01650, sequence (whole entry, looked up): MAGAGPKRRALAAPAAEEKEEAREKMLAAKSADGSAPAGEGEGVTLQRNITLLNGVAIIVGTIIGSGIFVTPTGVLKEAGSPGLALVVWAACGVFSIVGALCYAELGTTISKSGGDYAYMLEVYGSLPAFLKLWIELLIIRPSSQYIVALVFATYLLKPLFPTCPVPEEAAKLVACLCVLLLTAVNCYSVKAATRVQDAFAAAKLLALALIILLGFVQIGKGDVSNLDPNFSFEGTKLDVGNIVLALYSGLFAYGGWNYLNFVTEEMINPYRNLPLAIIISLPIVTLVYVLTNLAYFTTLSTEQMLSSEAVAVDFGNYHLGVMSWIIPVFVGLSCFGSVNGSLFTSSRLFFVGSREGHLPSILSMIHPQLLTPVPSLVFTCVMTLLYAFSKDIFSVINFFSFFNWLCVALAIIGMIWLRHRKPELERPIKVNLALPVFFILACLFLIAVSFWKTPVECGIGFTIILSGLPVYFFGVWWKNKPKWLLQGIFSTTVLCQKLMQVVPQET
PIK3CD: Phosphatidylinositol 4,5-bisphosphate 3-kinase catalytic subunit delta isoform (PIK3CD, Homo sapiens, UniProt O00329)
UniProt O00329, sequence (whole entry, looked up): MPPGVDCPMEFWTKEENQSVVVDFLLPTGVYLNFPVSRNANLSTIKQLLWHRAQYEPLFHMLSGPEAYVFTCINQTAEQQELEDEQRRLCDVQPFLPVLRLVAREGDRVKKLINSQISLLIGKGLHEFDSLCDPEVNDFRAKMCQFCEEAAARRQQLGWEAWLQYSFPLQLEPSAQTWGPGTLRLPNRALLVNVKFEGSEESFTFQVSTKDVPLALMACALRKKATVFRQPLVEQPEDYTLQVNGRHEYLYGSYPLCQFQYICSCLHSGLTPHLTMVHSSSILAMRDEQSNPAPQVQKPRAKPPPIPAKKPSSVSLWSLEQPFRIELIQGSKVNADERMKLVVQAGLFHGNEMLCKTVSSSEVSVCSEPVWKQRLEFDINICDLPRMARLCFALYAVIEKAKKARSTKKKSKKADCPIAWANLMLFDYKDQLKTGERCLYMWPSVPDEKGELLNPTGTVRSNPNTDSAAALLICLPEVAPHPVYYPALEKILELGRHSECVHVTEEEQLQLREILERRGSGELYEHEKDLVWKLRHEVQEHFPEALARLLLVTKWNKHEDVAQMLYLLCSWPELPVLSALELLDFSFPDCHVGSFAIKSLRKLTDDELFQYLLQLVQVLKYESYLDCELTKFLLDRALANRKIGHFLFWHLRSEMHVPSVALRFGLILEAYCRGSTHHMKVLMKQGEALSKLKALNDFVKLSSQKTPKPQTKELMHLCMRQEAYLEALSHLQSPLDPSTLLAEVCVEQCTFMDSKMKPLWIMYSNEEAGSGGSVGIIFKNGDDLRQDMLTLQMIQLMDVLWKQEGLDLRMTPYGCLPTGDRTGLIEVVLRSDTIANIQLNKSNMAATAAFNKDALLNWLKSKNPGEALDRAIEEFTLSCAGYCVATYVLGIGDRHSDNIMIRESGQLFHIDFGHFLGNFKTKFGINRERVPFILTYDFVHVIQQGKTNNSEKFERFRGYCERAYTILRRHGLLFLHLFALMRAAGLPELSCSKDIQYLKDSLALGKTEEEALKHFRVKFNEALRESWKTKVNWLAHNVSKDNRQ
ADRB2: Beta-2 adrenergic receptor (ADRB2, Homo sapiens, UniProt P07550)
UniProt P07550, sequence (whole entry, looked up): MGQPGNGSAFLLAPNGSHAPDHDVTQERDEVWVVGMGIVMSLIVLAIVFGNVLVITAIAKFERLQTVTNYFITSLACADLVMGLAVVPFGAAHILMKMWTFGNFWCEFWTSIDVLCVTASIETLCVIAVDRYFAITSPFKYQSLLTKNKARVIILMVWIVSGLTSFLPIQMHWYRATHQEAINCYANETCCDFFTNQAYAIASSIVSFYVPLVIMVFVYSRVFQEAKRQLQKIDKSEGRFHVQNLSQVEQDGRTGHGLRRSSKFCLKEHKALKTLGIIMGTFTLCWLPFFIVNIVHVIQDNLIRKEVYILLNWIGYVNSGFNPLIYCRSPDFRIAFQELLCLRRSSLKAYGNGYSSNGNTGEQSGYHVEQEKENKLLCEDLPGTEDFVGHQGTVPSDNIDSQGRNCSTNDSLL
NNMT: Nicotinamide N-methyltransferase (NNMT, Homo sapiens, UniProt P40261)
UniProt P40261, sequence (whole entry, looked up): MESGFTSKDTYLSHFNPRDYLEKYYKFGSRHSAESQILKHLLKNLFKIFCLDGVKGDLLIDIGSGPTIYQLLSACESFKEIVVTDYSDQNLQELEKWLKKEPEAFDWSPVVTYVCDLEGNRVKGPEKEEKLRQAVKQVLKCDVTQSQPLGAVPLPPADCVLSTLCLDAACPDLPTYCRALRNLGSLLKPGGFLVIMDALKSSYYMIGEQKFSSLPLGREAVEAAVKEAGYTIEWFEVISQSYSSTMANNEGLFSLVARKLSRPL
Uncharacterized protein: Uncharacterized protein (Trypanosoma brucei brucei, UniProt Q386Q8)
TDP1: Tyrosyl-DNA phosphodiesterase 1 (TDP1, Homo sapiens, UniProt Q9NUW8)
DNA dC->dU-editing enzyme APOBEC-3B: DNA dC->dU-editing enzyme APOBEC-3B (Homo sapiens, UniProt Q9UH17)
UniProt Q9UH17, sequence (whole entry, looked up): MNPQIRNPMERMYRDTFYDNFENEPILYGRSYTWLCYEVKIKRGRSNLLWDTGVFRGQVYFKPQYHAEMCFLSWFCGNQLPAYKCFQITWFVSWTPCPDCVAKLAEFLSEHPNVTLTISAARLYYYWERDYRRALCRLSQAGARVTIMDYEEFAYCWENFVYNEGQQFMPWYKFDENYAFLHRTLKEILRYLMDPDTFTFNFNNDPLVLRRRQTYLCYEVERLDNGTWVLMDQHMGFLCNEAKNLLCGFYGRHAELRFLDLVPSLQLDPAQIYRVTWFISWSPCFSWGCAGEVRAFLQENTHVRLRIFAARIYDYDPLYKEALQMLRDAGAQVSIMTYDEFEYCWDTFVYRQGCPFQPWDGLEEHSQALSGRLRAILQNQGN
Proteasome component C5/PSMB5: Proteasome component C5/PSMB5 (Homo sapiens, UniProt P20618+P28074)
UniProt P28074, sequence (whole entry, looked up): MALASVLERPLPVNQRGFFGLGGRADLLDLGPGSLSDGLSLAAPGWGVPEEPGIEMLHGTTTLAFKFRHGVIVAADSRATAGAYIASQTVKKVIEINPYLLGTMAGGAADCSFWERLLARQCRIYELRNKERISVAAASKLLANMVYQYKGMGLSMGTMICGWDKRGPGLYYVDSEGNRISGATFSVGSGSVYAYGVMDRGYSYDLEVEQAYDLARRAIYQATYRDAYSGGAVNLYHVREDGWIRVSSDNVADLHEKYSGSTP

SMILES | target | test | system | conditions | quantity | result
Cc1nn(-c2cccc(N)c2)c(=O)c2cnc(Nc3ccc(N4CCNCC4)cc3)nc12 | ZAP70 (Homo sapiens, UniProt P43403) | enzyme activity, inhibitor | – | – | IC50 | > 10 µM
O=C(O)Cc1cc2c(cc1C(=O)c1cccc(Cl)c1)OCO2 | Gria1 | ion current, patch clamp | – | – | IC50 | 4.31 µM
CC(C)c1ccc(/C=C/C(=O)c2ccc(S(C)(=O)=O)cc2)cc1 | MAOB | enzyme activity, inhibitor | – | – | IC50 | 5.03 µM
O=C1CC(c2ccccc2)N1S(=O)(=O)Cc1ccccc1 (stereo not shown) | glpG | enzyme activity, inhibitor | – | – | IC50 | 2.3 µM
COc1cccc(NC(=O)N2CCOc3ccccc32)c1 | ppa | inhibitor, counter-screen, coupling enzyme alone | – | – | IC50 | > 30 µM
COc1cc(OC)c2nc(C3CC3)nc(N3CCN(c4ccccc4OC)CC3)c2c1 | NTSR1 | G protein activation, antagonist | – | – | IC50 | 14.5 µM
N[C@@H](Cc1c[nH]c2ccc(OCc3ccccc3)cc12)C(=O)O | SLC7A5 | transporter uptake, inhibitor, radiometric | – | – | IC50 | 18.8 µM
O=C(O)Cc1cc2c(cc1C(=O)c1cccc(Br)c1)OCO2 | Gria1 | ion current, patch clamp | – | – | IC50 | 4.61 µM
Cc1nc(Nc2ccc3c(c2)/C(=C/c2cn(C)c4ccccc24)C(=O)N3C)c2ccccc2n1 | PIK3CD | enzyme activity, inhibitor, ADP detection | – | – | IC50 | 0.773 µM
COc1ccccc1C1CCN(c2nc(C3(C(F)(F)F)CC3)nc3ccc(N(C)CCO)cc23)CC1 | NTSR1 | G protein activation, antagonist | – | – | IC50 | 0.185 µM
OCC1CCCN(CCNc2cc(-c3ccccc3)nc3ccnn23)C1 (stereo not shown) | DNA dC->dU-editing enzyme APOBEC-3B, C-terminal domain (Homo sapiens, UniProt Q9UH17) | deaminase activity, inhibitor, UDG-coupled deamination | – | – | IC50 | 97.6 ± 4.1 µM
O=C(CSc1nnc(-c2ccco2)c(-c2ccco2)n1)c1ccc(Br)cc1 | ppa | inhibitor, counter-screen, coupling enzyme alone | – | – | IC50 | > 30 µM
O=Cc1ccc2c(c1C#Cc1ccc(O)cc1)C(c1ccc(O)cc1)(c1ccc(O)cc1)c1cc(O)ccc1-2 | PDE4D (Homo sapiens, UniProt Q08499) | enzyme activity, inhibitor | – | – | IC50 | 0.274 µM
Clc1cccc(Nc2nc(NC3CCCCC3)c3ccccc3n2)c1 | ADRB2 | cAMP production, antagonist, GloSensor | – | with: isoproterenol 1 µM | IC50 | > 50 µM
C[n+]1cc(C(N)=O)ccc1N | NNMT | enzyme activity, inhibitor | – | – | IC50 | 0.398 µM
Fc1ccc(Nc2nc(NC3CCCCC3)c3cc(Cl)ccc3n2)cc1F | ADRB2 | β-arrestin recruitment, antagonist | – | – | IC50 | 0.18 µM
O=S1(=O)O[C@@H]2[C@H](CO)[C@@H](O)[C@H](O)[C@@H](O)[C@@H]2O1 | Oligosaccharide 4-alpha-D-glucosyltransferase (agd31B, Cellvibrio japonicus, UniProt B3PEE6) | enzyme activity, inhibitor | – | 30 min preincubation, pH 6.5, 25 °C | IC50 | > 100 µM
Cc1cnc(Nc2ccc3c(c2)CCN(C(=O)/C=C/C(=O)C2CCCC2)C3)nc1-c1cnn(C(C)C)c1 | JAK1 (Homo sapiens, UniProt P23458) | enzyme activity, inhibitor, ADP detection | – | – | IC50 | 0.0108 µM
CC(C)(C)OC(=O)C[N+](C)(C)CCCN1c2ccccc2CCc2ccc(Cl)cc21 | Uncharacterized protein | enzyme activity, inhibitor, coupled colorimetric | – | with: E. coli pyrophosphatase coupling | IC50 | 50.6 µM
CCn1nc(Cl)c2c1-c1cnc(N)c(c1)O[C@H](C)c1cc(F)ccc1-c1nn(C)cc1C2 | LTK (Homo sapiens, UniProt P29376) | enzyme activity, inhibitor, radiometric | – | – | IC50 | 0.009 µM
Cc1cc(NC2CCN(C)CC2)ccc1-c1cc2c(N3CCC[C@H](C(=O)NCc4ccc(OC(F)(F)F)cc4)C3)ncnc2[nH]1 | NEK2 (Homo sapiens, UniProt P51955) | enzyme activity, inhibitor, mobility shift | – | – | IC50 | > 8 µM
COc1cccc2[nH]c(-c3ccccn3)nc12 | Core-binding factor subunit beta, with RUNX1 Runt domain (Homo sapiens, UniProt Q13951) | Runt domain binding, inhibitor, FRET | – | – | IC50 | > 34 µM
O=C(O)c1ccc(Nc2c(-c3ccccc3)nc3ccc(CON=Cc4ccc(-c5ccccc5)cc4)cn23)cc1 (mixture of isomers) | TDP1 | enzyme activity, inhibitor | – | 100 µM, unpurified compound | inhibition | -2.8%
Cc1nnc(Nc2ccc(O)cc2)nc1O | DNA dC->dU-editing enzyme APOBEC-3B | enzyme activity, inhibitor, HPLC | – | – | IC50 | 131 µM
Cc1cccc2c1NC(=O)C2(O)CC(=O)c1ccc2c(c1)OCO2 (stereo not shown) | ppa | enzyme activity, inhibitor | – | – | IC50 | > 100 µM
COc1ccc(-c2ccc(C(=O)N(C)CCO)cc2)c(OC)c1 | DNA dC->dU-editing enzyme APOBEC-3B | enzyme activity, inhibitor, HPLC | – | – | IC50 | 338 µM
COc1ccccc1C1CCN(c2nc(C3(F)CC3)nc3c(Cl)cc(N(C)CCO)cc23)CC1 | NTSR1 | G protein activation, antagonist | – | – | IC50 | 0.765 µM
CCNC(=O)/C=C/C(=O)N(CC(C)C)NC(=O)[C@H](CC(C)C)NC(=O)[C@H](CC(C)C)NC(=O)OCc1ccccc1 | Proteasome component C5/PSMB5 | chymotrypsin-like activity, inhibitor | human 20S proteasome | with: Suc-LLVY-AMC 100 µM | IC50 | 5.5 ± 1.2 µM

SMILES | target | test | system | conditions | quantity | result
COC(=O)Cc1cc2c(cc1C(=O)c1ccccc1Br)OCO2 | Gria1 | glutamate-evoked current, inhibitor, whole-cell patch clamp | HEK293T, homomeric receptor | – | IC50 | 5.5 µM
COc1ccc(C(N)=O)cn1 | NNMT | enzyme activity in cells, inhibitor | – | – | IC50 | 1 µM
CN(C)c1nc(NCc2ccc(Oc3ccccc3)cc2)c(/N=N/c2ccc(Cl)cc2)c(N(C)C)n1 | Chitinase (OfChi-h, Ostrinia furnacalis, UniProt Q4AE59) | enzyme activity, inhibitor, fluorescence | – | – | IC50 | 0.09 µM
NC(=O)c1ccc2nc(CN3CCCC3c3ccco3)cc(O)c2c1 (stereo not shown) | DNA dC->dU-editing enzyme APOBEC-3B | enzyme activity, inhibitor, HPLC | – | – | IC50 | 178 µM
CN1CCC[C@@H]1C(=O)N[C@@H](Cc1ccc(-c2ccccc2)cc1)B(O)O | Proteasome component C5/PSMB5 | enzyme activity, inhibitor | – | Tris buffer, with: Ac-WLA-AMC, PA28αβ | IC50 | 0.41 ± 0.02 µM
CC1C(=O)N(S(=O)(=O)c2ccc(C#N)cc2)C1c1ccccc1 (racemic) | glpG | enzyme activity, inhibitor | – | – | IC50 | 2 µM
Cc1noc(-c2ccc(C=NOCc3ccc4nc(-c5ccccc5)c(Nc5ccc(C(=O)O)cc5)n4c3)cc2)n1 | TDP1 | enzyme activity, inhibitor | – | 100 µM, unpurified compound | inhibition | 113%
CC1CCC2(C(=O)O)CCC3(C)C(=CCC4C5(C)CCC(OC(=O)CCC(=O)O)C(C)(C)C5CCC43C)C2C1C (stereo not shown) | UGT1A4 (Homo sapiens, UniProt P22310) | enzyme activity, inhibitor | human, liver microsomes | – | IC50 | 6.39 µM
COc1ccc2c(c1OC)C(=O)N(c1cccc(NC(C)=O)c1)C2 | Uncharacterized protein | inhibitor, coupled colorimetric | Trypanosoma brucei | – | IC50 | > 100 µM
Cc1ccc2nc(Nc3ccc(F)c(F)c3)nc(NC3CCCCC3)c2c1 | ADRB2 | cAMP production, antagonist, GloSensor | – | with: isoproterenol 1 µM | IC50 | 17 ± 7 µM
COc1ccc(OC)c(C2=Nn3c(nnc3C3CCCCC3)SC2)c1 | Uncharacterized protein | enzyme activity, inhibitor, coupled colorimetric | – | with: E. coli pyrophosphatase coupling | IC50 | 43.6 µM
O=C1c2cc(O)cc(O)c2C(=O)c2c(O)cc(CO)cc21 | MAOB | enzyme activity, inhibitor | – | – | IC50 | 21.7 µM
O=C1/C(=N\c2ccc(Cl)cc2)c2ccccc2N1Cc1ccccc1 | PIK3CD | enzyme activity, inhibitor, ADP detection | – | – | IC50 | 0.0603 µM
O=C(CCNC(=O)CNC(=O)CC(c1ccccc1)(c1ccccc1)c1ccccc1)NC[C@@H]1CCCN(Cc2ccc3cc(F)ccc3c2)C1 | CHRM5 (Homo sapiens, UniProt P08912) | ligand displacement, radioligand | – | cell membranes | IC50 | > 30 µM
O=C(CSc1nnc(-c2ccco2)c(-c2ccco2)n1)c1ccc(Cl)s1 | ppa | inhibitor, counter-screen, coupling enzyme alone | – | – | IC50 | > 30 µM
c1ccc2c(NC3CCCCC3)nc(NC3CCCCC3)nc2c1 | ADRB2 | β-arrestin recruitment, antagonist | – | – | IC50 | 4 µM
N[C@@H](Cc1c[nH]c2ccc(OCc3cccc(-c4ccsc4)c3)cc12)C(=O)O | SLC7A5 | transporter uptake, inhibitor, radiometric | – | – | IC50 | 18.9 µM
CCN(CC)CC(=O)Nc1cccc(-n2cc(-c3ccc4ccc(-c5cn(-c6cccc(NC(=O)CN(CC)CC)c6)nn5)cc4c3)nn2)c1 | FGFR2 (Homo sapiens, UniProt P21802) | enzyme activity, inhibitor | – | – | IC50 | > 10 µM
COc1cc(CF)c(C(N)=O)cn1 | NNMT | enzyme activity in cells, inhibitor | – | – | IC50 | 0.631 µM
CCOc1cc(CN2CC3(CC(N4CCC(C(=O)O)CC4)=NO3)C2)cc(OCC)c1-c1ccc(F)cc1 | SSTR5 (Homo sapiens, UniProt P35346, N187A) | cAMP level, antagonist, GloSensor | AD293 | N187A mutant, bandwidth 45.51, with: CST17 EC80 and forskolin | IC50 | 2.82 µM
c1ccc(Nc2nc(NC3CCCCC3)c3ccccc3n2)cc1 | ADRB2 | β-arrestin recruitment, antagonist | – | – | IC50 | 3 µM
N[C@@H](Cc1c[nH]c2ccc(OCc3ccccc3-c3ccccc3)cc12)C(=O)O | SLC7A5 | transporter uptake, inhibitor, radiometric | – | – | IC50 | 7.97 µM
CC(C)c1ccc(/C=C/C(=O)c2nc3ccccc3[nH]2)cc1 | MAOB | enzyme activity, inhibitor | – | – | IC50 | 4.71 µM
COc1cc2nc(C3CC3)nc(N3CCC(c4ccccc4OC)CC3)c2cc1OC | NTSR1 | G protein activation, antagonist, BRET | – | – | IC50 | 10.2 µM
COc1cc(NC(=O)N2CCSc3ccccc32)cc(OC)c1 | ppa | inhibitor, counter-screen, coupling enzyme alone | – | – | IC50 | > 30 µM
CN(C)c1ccc(CCC(=O)N2C(=O)C3(NC(c4ccc(F)cc4)C4(C(=O)Nc5ccccc54)N3Cc3ccc(F)cc3)c3ccccc32)cc1 (stereo not shown) | PIK3CD | enzyme activity, inhibitor, ADP detection | – | – | IC50 | 0.273 µM
COc1ccc(C(N)=O)c[n+]1C | NNMT | enzyme activity, inhibitor | – | – | IC50 | 0.398 µM

For quick reference, copied from above:
SMILES | target | test | system | conditions | quantity | result
COC(=O)Cc1cc2c(cc1C(=O)c1ccccc1Br)OCO2 | Gria1 | glutamate-evoked current, inhibitor, whole-cell patch clamp | HEK293T, homomeric receptor | – | IC50 | 5.5 µM
COc1cccc2[nH]c(-c3ccccn3)nc12 | Core-binding factor subunit beta, with RUNX1 Runt domain (Homo sapiens, UniProt Q13951) | Runt domain binding, inhibitor, FRET | – | – | IC50 | > 34 µM
Cc1nc(Nc2ccc3c(c2)/C(=C/c2cn(C)c4ccccc24)C(=O)N3C)c2ccccc2n1 | PIK3CD | enzyme activity, inhibitor, ADP detection | – | – | IC50 | 0.773 µM
CC(C)c1ccc(/C=C/C(=O)c2nc3ccccc3[nH]2)cc1 | MAOB | enzyme activity, inhibitor | – | – | IC50 | 4.71 µM
Fc1ccc(Nc2nc(NC3CCCCC3)c3cc(Cl)ccc3n2)cc1F | ADRB2 | β-arrestin recruitment, antagonist | – | – | IC50 | 0.18 µM
